Published values pooled from the literature.
Each line is one published result; not all experiments were run side by side. Numbers after ± are the reported error.
Organism: HIV-1

Structure (SMILES)	test	test system	conditions	EC50
O=C1c2c(ccc(O)c2O)CN1Cc1ccc(F)c(Cl)c1	viral replication	integrase Y143R mutant, VSV-G pseudotyped		370 ± 80 nM
CCCCCCCCCC(=O)OCC1OC(n2cc(C)c(=O)[nH]c2=O)CC1N(C)C (stereo not shown)	viral cytopathic effect, MTT	MT-4, IIIB		> 150 nM
COc1cc2nc(NC3CCN(Cc4ccc(C(N)=O)cc4)CC3)nc(Oc3c(C)cc(C#N)cc3C)c2cc1OC	viral replication	TZM-bl, GH9 K101P/K103N/V108I		22.1 ± 6.88 nM
CC(C)C[C@@H]1NC(=O)[C@H](CCCCN)NC(=O)[C@H](CC(C)C)NC(=O)[C@@](C)(NC(=O)[C@H](Cc2ccccc2)NC(=O)[C@H](Cc2ccc(O)cc2)NC(=O)[C@H](C)NC(=O)[C@@H](N)[C@@H](C)O)CCC=CCC[C@@](C)(C(=O)NCC(=O)N[C@@H](CCCNC(=N)N)C(=O)N[C@@H](Cc2c[nH]c3ccccc23)C(N)=O)NC1=O				> 40000 nM
O=C(NCc1ccc(F)cc1F)c1c(O)c2cccnc2n(O)c1=O	viral infectivity	integrase G118R		107 ± 8 nM
Cc1cn(C2CC(N(C)C)C(CO)O2)c(=O)[nH]c1=O (stereo not shown)	viral cytopathic effect, MTT	MT-4, IIIB		> 460 nM
Nc1c(C(=O)NCc2ccc(F)cc2F)c(=O)n(O)c2ncccc12	viral replication, single-round infectivity	integrase H51Y/R263K		3.2 ± 0.9 nM
O=C(NCc1ccc(F)cc1F)c1cc2cccnc2n(O)c1=O	viral replication, lentiviral vector	wild-type integrase	5% FBS	5.1 ± 1.9 nM
Cc1cc(/C=C/C#N)cc(C)c1Oc1nc(NC2CCN(Cc3ccc(S(C)(=O)=O)cc3)CC2)nc2ncccc12	viral replication	TZM-bl, GH9 K101P/K103N/V108I		11.1 ± 3.87 nM
O=C1c2ccc(O)c(O)c2C(=O)N1Cc1ccc(F)c(Cl)c1	viral replication	integrase Y143R mutant, VSV-G pseudotyped		1800 ± 200 nM
Cc1cccc(-c2cc(C#N)cc(Oc3c(C(F)(F)F)ccn(Cc4n[nH]c(=O)n4C)c3=O)c2)c1	viral cytopathicity	MT4, wild type		13 ± 3.4 nM
CC(C)C[C@@H]1NC(=O)[C@H](CCCCN)NC(=O)[C@H](CC(C)C)NC(=O)[C@@](C)(NC(=O)[C@H](Cc2ccccc2)NC(=O)[C@H](Cc2ccc(O)cc2)NC(=O)[C@H](C)NC(=O)[C@@H](NC(=O)c2ccc3c(c2)C(=O)OC32c3ccc(O)cc3Oc3cc(O)ccc32)[C@@H](C)O)CCCC=CCCC[C@@](C)(C(=O)NCC(=O)N[C@@H](CCCNC(=N)N)C(=O)N[C@@H](Cc2c[nH]c3ccccc23)C(N)=O)NC1=O				11000 nM
CN(C)S(=O)(=O)c1cc(O)c(O)c2c1CN(Cc1ccc(F)c(Cl)c1)C2=O	viral replication	integrase Y143R mutant, VSV-G pseudotyped		20 ± 6 nM
